# Assay results pooled from the literature.
# Numbered parts are unrelated; each lists some results of a single study.

# Set 1 — method: RNA Bind-n-Seq; molecule type: RNA; sample: in vitro; concentration: 365 nM; relative to: no-protein control; direction: higher = stronger binding
# Target: RNA binding protein fox-1 homolog 2, RRM domain, GST-SBP tag (RBFOX2, Homo sapiens, UniProt O43251-10, residues 100-194)
# Notes: natural RNA segment, single round, ends assumed
# Constant ends, left off below: GGGAGUUCUACAGUCCGACGAUC … UGGAAUUCUCGGGUGCCAA
# Construct (chain): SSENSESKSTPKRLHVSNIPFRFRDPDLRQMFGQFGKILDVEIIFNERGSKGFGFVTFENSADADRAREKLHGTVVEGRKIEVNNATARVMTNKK
Oligonucleotide,RBNS enrichment (R)
UUUCCAGUUAACUUUGCAUCUUCAUACUCCUCAAGCAGACAUCACUCUUCCGUUUCUUCUAACCUGCUGUUUCUGUUCUGACAGCGGCUCCUUUGUAAGCUUCAGGCCAC,4.51
GCCGUCUGACCAGUUGGCUGGCGGUGGUUCUGGUGGAGCACGAGGGAGCCCGGGUGGUGCCCUGAGCCUCGAGCUGCUCUCUGUCACUGUCUUGAAUCAGACUCAGAAAU,0.344
UGCCAAGGGCCUGGAUAAAGGGGAACUACGGCAUCUUGGAGCUCACAAAUGUGAAUCAAGCAGUCCGGCAUUCUGGAAAGCCUUGGCAUGGUUCUGUAAAGCUCUUGUAC,0.494
AGACCAGGUAAUGAGUGGCUGCAAGGAGUCAUAUAGCCUGGGUGUGGGUGAGGGUCUGCCUGCCUGUUUCUGUCUGGGUGUCUGAGUUCCAAAAAAUGUGUGUUGUUUGU,1.88
GAAAAGGAAACACACCCCAAGGCAAGAAUGAGGAGGCAUGAUGCUAAGGAGGACAACUAUGAGGUAAAGCCAUCCCCAGACUGACAGCUCUGCCUUUAUCUUGCCUCUGG,14.1
AGCAGAGUCUAUGAUUCCUACUCUUCUACUUCUUGUACUGAUAUAAGGGUUUGUUUUGUUUUGUUUUUUAAAGUAAGGCUGUCUCUCUUUCCCAGUAACAUUCCUGAGUC,0.362
UAGGUUUUGUUUUUCCUUGAGAGCCUUUUUUUAGGCCCCACAGACAGUGGUGGGUGGGGAGGCGAUAGGAAACACAUUCCCCAGUGUGCAUUUAACAUUCAUAGCCUACA,0.49
AGGAGGAAGAGGGAAGUCAAGAGCAACCUCCAAGGCCUAUGUCAGCCUCUUCUCCUUGGGUCUUGGGGUGGGUUAGAACUGGGUUCCAGUCUGGCCAGAUGGGUUGCUGG,0.485
GGGCCUAUCCUUGCCUGUAGUUCUCAGUCACUGGAUGCACAAAAUCACUGUGUAACAUUGGCUCACUUGGUGAGCAUAGGGUUGACUGAUAAAAUGUUUAAUUCCCUUGC,0.368
GAUAAAGAUCCCUUGGGGGGGGGGGAGUUGGAUGUUUGACUACUAGGAGAUACUAGAGGCUCAGACAGCAGGCAUGUAUCCCCAUGGGGAAUAUGUGAGGACCUGGACCG,3.34
CACACACAGCAACACUGAAAUCCUACAGACCAAACAAACCCACUUGUCAGCAGGAGCCGUGGUCCAGCCCAGCACCUGUGCUCUCGUAGCCGAGGCCAGCCGUGUUGGGA,0.507
AAGGCUCCUAGUCAAAUGAUCCAAACCUUUAACAUCGUUUCUGAUGGUACCCAAGUUCACAUUUUAUUUUUAUUUUUUAUCAAAUUCUUAGAAAGAGUCAUAAGAAAAAA,0.8

# Set 2 — method: aptamer microarray, sandwich; molecule type: DNA with 2'F-ANA; sample: in vitro; concentration: 200 nM; together with: Cy3 exosite-II aptamer, 400 nM; direction: higher = stronger binding; oligonucleotide: GGTTGGTGTGGTTGG
# Target: Prothrombin, mature alpha-thrombin (F2, Homo sapiens, UniProt P00734)
# Notes: whole 15-mer aptamer, many near background
Modification,mean fluorescence intensity [a.u.]
2'F-ANA at 1 2 4 5 6 7 10,129
2'F-ANA at 2 3 8,948
2'F-ANA at 1 2 3 4 5 6 9 10 11 14 15,46.4
2'F-ANA at 1 2 4 5 7 8 14,43
2'F-ANA at 1 2 5 7 11 12 13 14 15,62.9
2'F-ANA at 3 4 5 6 7 8 9 10 12 13 15,53.3
2'F-ANA at 2 4 5 7 8 9 11 12 13,84.4
2'F-ANA at 1 3 4 8 9 10 11 12,78.4
2'F-ANA at 1 3 8 9,346
2'F-ANA at 3 4 6 8 9 12 13 14,257
2'F-ANA at 5 7 10 11 12 13 14,51.7
2'F-ANA at 7 10 14,142
2'F-ANA at 4 10,102
2'F-ANA at 1 6 8 14,60.7
2'F-ANA at 1 3 4 6 8 9 10 12 15,78.9
2'F-ANA at 1 5 6 10 11 12 13 14,46.3
2'F-ANA at 1 2 4 5 9,63.1
2'F-ANA at 1 2 5 6 8 9 11 14,51.1
2'F-ANA at 1 5 6 9 10 15,55.7
2'F-ANA at 1 2 3 4 5 6 7 8 9 10 12 13,59.4
2'F-ANA at 1 3 4 8 9 10 14 15,49.8
2'F-ANA at 1 2 3 4 6 7 9 13 14 15,57.3
2'F-ANA at 1 3 4 8 9 10 11 14,62.6
2'F-ANA at 2 3 4 5 6 7 8 9 10 14,79
2'F-ANA at 1 2 3 4 7 8 9 13 14,62.1

# Set 3 — method: RNA Bind-n-Seq; molecule type: RNA; sample: in vitro; concentration: not given; relative to: input RNA pool; direction: higher = stronger binding
# Target: RING finger protein unkempt homolog, zinc fingers 1-6, GST-SBP tag (UNK, Homo sapiens, UniProt Q9C0B0, residues 30-357)
# Notes: RNA with constant flanks, human-mouse chimeric sites, ends assumed
# Constant ends, left off below: GGGAGUUCUACAGUCCGACGAUC … CAACAGAGGAUUGAGCAUCA
# Residues (chain): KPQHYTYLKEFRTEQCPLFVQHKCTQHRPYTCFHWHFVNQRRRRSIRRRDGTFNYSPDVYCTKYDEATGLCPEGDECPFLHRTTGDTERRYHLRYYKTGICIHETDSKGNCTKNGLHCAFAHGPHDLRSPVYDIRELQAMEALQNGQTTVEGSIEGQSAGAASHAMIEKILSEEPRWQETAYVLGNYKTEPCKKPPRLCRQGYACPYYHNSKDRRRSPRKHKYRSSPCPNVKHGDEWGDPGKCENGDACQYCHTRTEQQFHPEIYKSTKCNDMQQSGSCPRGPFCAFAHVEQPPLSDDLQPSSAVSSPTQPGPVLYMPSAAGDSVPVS
Oligonucleotide,bound/input enrichment [ratio]
UCAGGAACCCAGACAAACAUGAAUGUAAAUGAAGUCAUUAGCAACAGAGCAAUUGAAAUGUUAGGAGGUGAACUUGGCAGCAAGAAGCCUGUGCAUCCCAAUGAUCAUGUUAACAAAAGC,0.262
CCUGCUCAGAUCACCAUGAAAGUAAUCCAAGGCCUAUACAGUGGGGUCACCACAGUGGAACUGGACACCCUGGCUGCUGAGACAGCCGCGACCUUGACUACUAAGCACCCUGACUAUGCC,0.129
AGAAUCUUGGGACUGUUUUACUUAAUUGGUCAUUGAUAUCUCAACAAACAUGGAGAUAAGAUUAGAAAUCUUGACAUCAACAGGUAUUAAGCAGAAAAAACCCUGGCCACGUGUCUCCUG,0.151
GAUAAGAAAAGCUUGUUGGAGACCCGAUUGCAUGUCACUGGUAGAGACCUGAGGUGUCAAAUAGCUGAAACUUUCGGAUUUCAAGAAAAUUACAUCAAGAUCGUAAUAAAUAAGAAGCAG,0.463
GCAAAGGAUGAUGAGGCGGCAGCUGUUGCCCUUUCCUCUCUCGUUCAUGCUUUGGAUGAGUUAAACAUGGUCGCCAUAGUUCGAUAUGCUUAUGACAAAAGAGCUAAUCCUCAAGUUGGU,0.51
GCCACCAAUUCCAGCCAACAUGACCCUUGCUGCCUACAAGGAGAAGAUGAAGGAGCUCCCGCUGGUGUCCUUGUUCUGCUCCUGCUUCCUGGCCGAUCCCCUGAAUAAGUCGUCCUACAA,0.227
AAAGAGUGGAUAGAGUGUGCACACGGGAUCGGUGGGACCCGGGCGAAAAAGGAGUGCAAGAUAGAGUUCGAUGACUUCGAAGAGUGCUUGCUUCGGCACAAAACGAUGAGGCGAAUGCAU,0.366
GAUCAUGAACCACCAUCAGAAAUGAAGAUGAGAUUACCCAGACGAGCCCAAAACCGCGCGCUACAGAAAAGUAAACUUAACCUUGCAGAGUUCCUUAAAUGAAGAUCAAGUUAAGAGAGC,0.312
UCGGAUGCUGUGCUGGGUCACUUUUCAUAUCCAGAUCCUUCACAGUGGACAGAUGAAGAAUUAGGUAUCCCUCCUGAUGACGAGGACUGACACUGUAAACUCUCUGGCACUCUGUACGCA,0.266
UGUAGUUGAUCCCCUGCUCAUUUUUCUCUUUUCUUUCUUUCCUUUAGGAAAAGCCUAAAGAUUAGGUUGUAAGAAAAACAGAAGCCAGCCAUGUUUCACCUGUGUUACAGGUAUUUCGUC,0.0742
AUGGAACAUUUCGAUGCGUCACUCAGUACCUAUUUCAAGGCCUUCCUGGGCCCCCGAGAUACUAGAGUCAAAGGAUGGUUCCUCCUGGACAAUUAUAUCCCUACGUUUGUCUGUUCUGUU,0.0985

# Set 4 — method: protein binding microarray; molecule type: double-stranded DNA, one strand shown; sample: in vitro; concentration: not given; relative to: not given; direction: higher = stronger binding
# Target: Histone acetyltransferase KAT6A, winged helix 1, GST fusion (KAT6A, Homo sapiens, UniProt Q92794, residues 1-85)
# Notes: 8-mer, flanks averaged, mean of 2 arrays, mostly near background
# Target sequence (chain): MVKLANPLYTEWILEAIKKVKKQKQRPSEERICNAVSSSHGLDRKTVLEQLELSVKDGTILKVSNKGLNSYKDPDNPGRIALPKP
Oligonucleotide,E-score
GTATCATA,-0.0623
AGAACAAA,0.00455
ACATGCCC,-0.00313
CTCCGTTC,0.119
ACCGAATA,-0.202
ACAGCTCA,-0.119
GGGGTGGA,-0.0891
CTACGCAA,0.0362
CTACGACC,-0.0592
CCGACCTC,-0.0659
CACGGAGC,0.296
ATCCATTC,-0.201
CGCAAAAG,0.222
ACAATCCA,-0.0663
ATTTTCGC,0.0233
ACTCCCAA,-0.298
AGGAACAC,-0.088
ATCACCAC,-0.0216
GCGACCAA,0.0491
GGAGTCAA,-0.165
CTGACCTC,-0.133

# Repeated from above (set 4):
Oligonucleotide,E-score
CTCCGTTC,0.119
ACCGAATA,-0.202
ACAGCTCA,-0.119
GGGGTGGA,-0.0891
CTACGCAA,0.0362
CTACGACC,-0.0592
CCGACCTC,-0.0659
CACGGAGC,0.296
ATCCATTC,-0.201
